# Assay results pooled from the literature.
# Protocols differ between the studies behind these lines.
Molecule,target or system,test,test system,conditions,how to read,measurement,value
insulin human,,refers to: NAV3 mRNA,"uninfected mouse, brain","i.p., dose not given",reference: PBS,fold change,1.1
Polymyxin B,Klebsiella pneumoniae,,NCCP 16054,"16 h, 37 °C, Mueller-Hinton broth",,MIC,2 µM
Polymyxin B,Klebsiella pneumoniae,broth microdilution,"K4 parental, KPC-2",,,MIC,16 µg/mL
tunicamycin,Pseudomonas aeruginosa,"broth microdilution, EUCAST",DSM 1128,"18 to 24 h, 37 °C",,MIC,> 64 µg/mL
thiostrepton,Enterococcus faecium,,VanB vancomycin-resistant,,,MIC,≤ 0.03 µg/mL
colistin,Klebsiella pneumoniae,broth microdilution,KPC-180 producing,,,MIC,32 µg/mL
DAPT,Streptococcus pneumoniae,,"ATCC 700677, multidrug-resistant, CAMHB, lysed horse blood",,,MIC,12.5 µg/mL
Polymyxin B,Pseudomonas aeruginosa,broth microdilution,ATCC 27853,20 h,,MIC,2 µg/mL
Teicoplanin A2-2,Streptococcus pyogenes,,,,,MIC,0.12 µg/mL
colistin,Klebsiella pneumoniae,,"ATCC BAA-1705, KPC-2",,,MIC,≤ 0.12 µg/mL
